{"data": "Measurements of several laboratories", "note": "Numbered parts are unrelated; each lists some results of a single study."}
{"data": "Block 1", "target": "Histone acetyltransferase KAT6A, winged helix 1, GST fusion (KAT6A, Homo sapiens, UniProt Q92794, residues 1-85)", "technique": "protein binding microarray", "form": "double-stranded DNA, one strand shown", "matrix": "in vitro", "concentration": "not given", "setting": "8-mer, flanks averaged, mean of 2 arrays, mostly near background", "relative to": "not given", "reading": "higher = stronger binding", "Construct (chain)": "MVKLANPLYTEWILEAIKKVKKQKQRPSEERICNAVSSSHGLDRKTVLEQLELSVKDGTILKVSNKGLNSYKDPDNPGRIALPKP"}
{"Strand": "AAGGAGAA", "E-score": -0.166}
{"Strand": "CCGTTAGC", "E-score": 0.184}
{"Strand": "GAGTATGA", "E-score": 0.0315}
{"Strand": "AGTTAATG", "E-score": -0.239}
{"Strand": "AAAAAACT", "E-score": -0.203}
{"Strand": "AGCTATCA", "E-score": -0.0194}
{"Strand": "CCTAAAAC", "E-score": -0.0118}
{"Strand": "CGTCGTTA", "E-score": 0.0649}
{"Strand": "ATAAGAGA", "E-score": -0.126}
{"Strand": "ACATATCG", "E-score": -0.0169}
{"Strand": "TATACCCA", "E-score": -0.14}
{"Strand": "AAACAAGA", "E-score": -0.165}
{"Strand": "AATCGTGA", "E-score": -0.0426}
{"Strand": "AGCTCTGG", "E-score": -0.201}
{"Strand": "GCAGCAAA", "E-score": -0.153}
{"Strand": "CATGCACA", "E-score": -0.172}
{"Strand": "ATGAACTC", "E-score": -0.101}
{"Strand": "AATCATAA", "E-score": -0.254}
{"Strand": "GCTTTGTA", "E-score": -0.063}
{"Strand": "AGCACCTG", "E-score": -0.278}
{"Strand": "ATTGCGCA", "E-score": 0.275}
{"Strand": "GGGGCCGA", "E-score": 0.222}
{"Strand": "ATGGGGAC", "E-score": -0.148}
{"Strand": "ACACTCGA", "E-score": -0.137}
{"data": "Block 2", "target": "RING finger protein unkempt homolog, zinc fingers 1-6, GST-SBP tag (UNK, Homo sapiens, UniProt Q9C0B0, residues 30-357)", "technique": "RNA Bind-n-Seq", "form": "RNA", "matrix": "in vitro", "concentration": "not given", "setting": "RNA with constant flanks, human and mouse sites, ends assumed", "relative to": "input RNA pool", "reading": "higher = stronger binding", "sequence of UniProt Q9C0B0 (30-357, looked up)": "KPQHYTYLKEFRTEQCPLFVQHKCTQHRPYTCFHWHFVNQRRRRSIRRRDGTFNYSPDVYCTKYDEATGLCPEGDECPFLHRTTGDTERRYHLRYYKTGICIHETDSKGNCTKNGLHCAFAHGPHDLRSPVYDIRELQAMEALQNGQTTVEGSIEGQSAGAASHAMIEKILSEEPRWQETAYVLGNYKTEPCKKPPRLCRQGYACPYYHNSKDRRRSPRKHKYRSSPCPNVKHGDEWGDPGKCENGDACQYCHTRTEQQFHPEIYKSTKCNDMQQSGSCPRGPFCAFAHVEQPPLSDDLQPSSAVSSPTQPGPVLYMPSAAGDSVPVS"}
{"Strand": "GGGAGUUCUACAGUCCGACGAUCAAGAAGUAAAUCAAUGCUAAAUGAAGAAUCUGUACUUUGUAUGUAUAGAAUUUAUCUAAUAAAUCAUUCAUAGAUCAUUUUAAAGGAUCAUUAUAAAAAUCAUAAACCUAUUUGAGGAAGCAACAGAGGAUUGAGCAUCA", "bound/input enrichment": "1.45 ratio"}
{"Strand": "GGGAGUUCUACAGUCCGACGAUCAAACACUAAAUGAACAACGCCUGGAAGGAGAAUUUUGUGAUAUUGCUAUUGUGGUUGAGGAUGUGAAAUUCAGAGCACACAGAUGUGUUCUUGCUGCCUGCAGCACUUACUUUAAAAAGCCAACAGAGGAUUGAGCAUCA", "bound/input enrichment": "0.212 ratio"}
{"Strand": "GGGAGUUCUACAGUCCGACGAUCCUGAAAUCUUUGGAGACUAUGCCUCCAGAGACGUCAAAGACCACGCUGGUAGAGCUUCCCAUAGCAAAAGUGGUUGAGCCAUCAGAAACCCUCACGAUAGUGUCAGAGACACCUACUGAGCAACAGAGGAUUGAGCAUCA", "bound/input enrichment": "0.211 ratio"}
{"Strand": "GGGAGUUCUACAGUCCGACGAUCAAUCUAAAACUUGCAACGGAACUCCCAGAUGCUGAACUUAGAAGGACUUUAUGGUCUUUAGUAGCUUUUCCCAAGCUCAAACGGCAAGUUUUGUUGUAUGACCCUCAAGUCAACUCACCCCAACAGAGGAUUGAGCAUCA", "bound/input enrichment": "0.202 ratio"}
{"Strand": "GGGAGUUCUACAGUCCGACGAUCGAGGAUCCGUACCCACACAAGUUCCACGUGGACAUCUCACUCACUCAGUUCAUCCAAGAAUAUAGUCACCUGCAGCCUGGGGACCACCUGACUGAUGUCACCCUCAAAGUGGCAGGCCGCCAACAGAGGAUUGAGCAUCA", "bound/input enrichment": "0.265 ratio"}
{"Strand": "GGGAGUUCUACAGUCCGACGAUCUCUCCAAGCAAGAGGUACUGUUUUCGUUGUUGGGCCUUGAGGAAGGAUUGGUAUUCAGAUUGUUCAAAGUUAACCCAUUCUCUCUCCACGUCUGAUAUCACUGCCAUACCUGAAAAGGAACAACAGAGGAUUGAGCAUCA", "bound/input enrichment": "0.272 ratio"}
{"Strand": "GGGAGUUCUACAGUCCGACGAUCCUCCGGAGAUCUGCAUAUCCCCACCGUUUGAAUCUCUUUUACCUUGCCAAUGAUGUCAUACAGAACUGUAAAAGGAAAAAUGCAAUCAUAUUCCGUGAAUCAUUUGCUGAUGUACUUCCUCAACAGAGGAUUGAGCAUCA", "bound/input enrichment": "0.287 ratio"}
{"Strand": "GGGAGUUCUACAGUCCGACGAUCGUGGAAGGAAUCAUAGAGGAAGAAGAAGAAGAUGAGGAAGGAAGUGAGUCUAUAAGCAAGAGGAAAAAGGAAGAUGACAUGGAGACCAAGAAAGACCAUCCAUACACCUGGAGAAUUGAACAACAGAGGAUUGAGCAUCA", "bound/input enrichment": "0.816 ratio"}
{"data": "Block 3", "target": "RNA binding protein fox-1 homolog 2, RRM domain, GST-SBP tag (RBFOX2, Homo sapiens, UniProt O43251-10, residues 100-194)", "technique": "RNA Bind-n-Seq", "form": "RNA", "matrix": "in vitro", "concentration": "365 nM", "setting": "natural RNA segment, single round, ends assumed", "relative to": "no-protein control", "reading": "higher = stronger binding", "Residues (chain)": "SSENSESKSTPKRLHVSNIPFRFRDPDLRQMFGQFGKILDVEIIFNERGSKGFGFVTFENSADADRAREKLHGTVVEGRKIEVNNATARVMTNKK"}
{"Strand": "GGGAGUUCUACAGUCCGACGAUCCCCAGGGCCUCUGGGACACUUGCCUUGACUUGCAACUUGCCUUGAACAUCACGAUCAAAGCAGCAGGUGCUGUGGUCUCUCAAAAUUGAUUUUUAUUUGACUCUGUGGCUUGGAAUUCUCGGGUGCCAA", "RBNS enrichment (R)": 0.767}
{"Strand": "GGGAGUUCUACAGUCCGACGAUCUAGUGCCCAAGCCUGGUCGUGUUGCCAGGAGUGGUGACAAGAAAUGCAGCUUACAUCAAACGAACAUGUAGUGCAUGCCCACUGCCUGAUGGCCAGAUGGCCUGUAGGAAUGGAAUUCUCGGGUGCCAA", "RBNS enrichment (R)": 1.83}
{"Strand": "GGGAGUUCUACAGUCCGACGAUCUCCUGCUUAAAACUAUGGAAAACCUAACCUGAUUAGAGCCUUGACUAUUUUGAAGAUUAAAUGCACACUUUUUAUAUAAUGUGACCAGUUUAAAUGUAGUUUGUAUUGUAUGGAAUUCUCGGGUGCCAA", "RBNS enrichment (R)": 2.66}
{"Strand": "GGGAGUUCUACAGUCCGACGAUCUCAAAAUAUAGAUUAAUUGGCUCAGCUUUAAUACCUUUCUAGGAGGUGUCACAAUGUAGGGUACCAAGGGUUGGAUUGUGAUGGGGCAUGGUCGUACACUGCUCAUUGUGUGGAAUUCUCGGGUGCCAA", "RBNS enrichment (R)": 0.526}
{"Strand": "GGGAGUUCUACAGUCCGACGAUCUGGAAAUGCAAUAUCUUGGGGAGACGUCAACUUCUGAAGUGACUUUGAAGGCAGGGCAGCUACCCAGGCAAAUGGCGUGGAAGGAAGAGCUGAGAGUGGGCCUGGGAAAGUGGAAUUCUCGGGUGCCAA", "RBNS enrichment (R)": 0.868}
{"Strand": "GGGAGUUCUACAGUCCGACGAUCCUAUAUUCAUCCAGGAUACUUGGAAGUGCUAAAAUAGGAAGGGAUUCGGCUUUCAACUUUGCUACCAUCUUCCCUGAAGCAGGAAAAUGAACAUGGACUUAAAUGUUCUUUGGAAUUCUCGGGUGCCAA", "RBNS enrichment (R)": 0.301}
{"Strand": "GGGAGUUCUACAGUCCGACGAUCUUUUUCCUUUUAGUGUCUCUUGAAGCUACAUGGCUAGAAUAGAUAUGAUUUGGAGGGUUUAAUUUCCUUUUGUGAGGAUUACUGCUACUUCUUCCUAGCCAAUUCCUCAUUGGAAUUCUCGGGUGCCAA", "RBNS enrichment (R)": 0.239}
{"Strand": "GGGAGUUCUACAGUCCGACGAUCAAGUAUGUACUCUUUGCUUUUGCAUGGCUUGGCUUAGUAUCCAAGGUAUAUUAGAGCCACUUGAAAGCAUGAAGACCAGUUAUAUGGAAACAGGUUUCUCUCAGUGGCACUGGAAUUCUCGGGUGCCAA", "RBNS enrichment (R)": 6.72}
{"data": "Block 4", "target": "Ras GTPase-activating protein-binding protein 1, full length (G3BP1, Homo sapiens, UniProt Q13283)", "technique": "RNA Bind-n-Seq", "form": "RNA", "matrix": "in vitro", "concentration": "200 nM", "setting": "whole 134-nt RNA, ends assumed", "added": "150 mM LiCl", "relative to": "input library", "reading": "higher = stronger binding", "library": "7-deaza-guanosine replaces G", "sequence of UniProt Q13283 (whole entry, looked up)": "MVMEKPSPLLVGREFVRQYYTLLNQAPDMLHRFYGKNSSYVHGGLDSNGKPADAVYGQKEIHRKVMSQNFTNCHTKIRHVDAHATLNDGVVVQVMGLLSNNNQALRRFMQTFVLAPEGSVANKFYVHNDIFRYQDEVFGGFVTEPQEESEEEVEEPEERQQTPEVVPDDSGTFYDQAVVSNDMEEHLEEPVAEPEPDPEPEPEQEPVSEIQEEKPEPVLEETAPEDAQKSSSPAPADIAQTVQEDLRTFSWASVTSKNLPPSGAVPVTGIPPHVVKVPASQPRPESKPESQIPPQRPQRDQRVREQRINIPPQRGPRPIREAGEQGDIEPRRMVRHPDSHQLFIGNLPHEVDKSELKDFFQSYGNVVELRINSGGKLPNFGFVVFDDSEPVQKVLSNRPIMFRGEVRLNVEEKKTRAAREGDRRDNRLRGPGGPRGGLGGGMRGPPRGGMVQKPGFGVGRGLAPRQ"}
{"Strand": "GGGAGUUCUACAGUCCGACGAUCGUCCUGUGCUACACAUCGUAUGUACCGAAUCGGGGCCCCCGGCCCCCGGGGCCCCCGGAAAGUAUUAUGUUACGCCGUUCGGAUCUGCACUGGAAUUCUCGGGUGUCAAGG", "log2 enrichment": -2.16}
{"Strand": "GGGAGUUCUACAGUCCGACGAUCCCUGUGCUACACAUCGUAUGUACCGAAUCGGGGUGGGGUUUUUUUGGGGAAAAAAAGGGGAAAGUAUUAUGUUACGCCGUUCGGAUCUGCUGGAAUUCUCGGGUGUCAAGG", "log2 enrichment": -0.332}
{"Strand": "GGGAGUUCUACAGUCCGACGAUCACCAUGCAGGUGGGCAUCUUUGGGAAGUGGGGCAAGGGGGGGAUAGGGAGGGGGGUAACACUUUGGGAACAGGUGGUCCGAGGUCGUUUCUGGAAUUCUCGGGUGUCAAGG", "log2 enrichment": 0.0266}
{"Strand": "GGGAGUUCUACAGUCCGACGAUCAAGUCCUGUGCUACACAUCGUAUGUACCGAAUCGGGGAAAGGGGAAAGGAAAGGGGAAAGUAUUAUGUUACGCCGUUCGGAUCUGCACUUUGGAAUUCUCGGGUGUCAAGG", "log2 enrichment": 0.359}
{"Strand": "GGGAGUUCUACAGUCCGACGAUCGUCCUGUGCUACACAUCGUAUGUACCGAAUCGGGUUUUUUUGGGAGGGAAAAAAAGGGAAAGUAUUAUGUUACGCCGUUCGGAUCUGCACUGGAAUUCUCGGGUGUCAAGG", "log2 enrichment": -0.806}
{"Strand": "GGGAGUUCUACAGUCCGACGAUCGCAGGAAGUAAAAACAAAUGGAAAUGCUUCGGAUAGUGGCAGGGGUGGGGGUUGCUAAGGAAAGGGUGUGAUGGGAGUGGGUAAAGAGUUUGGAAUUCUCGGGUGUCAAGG", "log2 enrichment": -0.0814}
{"Strand": "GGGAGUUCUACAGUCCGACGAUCAAGUCCUGUGCUACACAUCGUAUGUACCGAAUCGGGAAAAAGGGAAAGGGUUUGGGAAAGUAUUAUGUUACGCCGUUCGGAUCUGCACUUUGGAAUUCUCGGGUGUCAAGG", "log2 enrichment": -1.84}
{"Strand": "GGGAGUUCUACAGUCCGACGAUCACCAUGCAGGUGGGCAUCUUUGGGAAGUGGGGCAAGGGGGGGAUAGAAAGGGGGGUAACACUUUGGGAACAGGUGGUCCCAGGUCGUUUCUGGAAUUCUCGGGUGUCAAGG", "log2 enrichment": 0.326}
{"note": "A few entries again (block 4):"}
{"Strand": "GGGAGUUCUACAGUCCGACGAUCGCAGGAAGUAAAAACAAAUGGAAAUGCUUCGGAUAGUGGCAGGGGUGGGGGUUGCUAAGGAAAGGGUGUGAUGGGAGUGGGUAAAGAGUUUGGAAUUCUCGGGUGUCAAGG", "log2 enrichment": -0.0814}
{"Strand": "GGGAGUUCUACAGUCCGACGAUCGUCCUGUGCUACACAUCGUAUGUACCGAAUCGGGUUUUUUUGGGAGGGAAAAAAAGGGAAAGUAUUAUGUUACGCCGUUCGGAUCUGCACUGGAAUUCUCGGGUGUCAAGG", "log2 enrichment": -0.806}
{"Strand": "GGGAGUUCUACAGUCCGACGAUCAAGUCCUGUGCUACACAUCGUAUGUACCGAAUCGGGGAAAGGGGAAAGGAAAGGGGAAAGUAUUAUGUUACGCCGUUCGGAUCUGCACUUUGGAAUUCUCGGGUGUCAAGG", "log2 enrichment": 0.359}
{"Strand": "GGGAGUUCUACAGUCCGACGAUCACCAUGCAGGUGGGCAUCUUUGGGAAGUGGGGCAAGGGGGGGAUAGGGAGGGGGGUAACACUUUGGGAACAGGUGGUCCGAGGUCGUUUCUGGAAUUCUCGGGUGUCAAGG", "log2 enrichment": 0.0266}
{"Strand": "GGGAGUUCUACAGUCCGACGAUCACCAUGCAGGUGGGCAUCUUUGGGAAGUGGGGCAAGGGGGGGAUAGAAAGGGGGGUAACACUUUGGGAACAGGUGGUCCCAGGUCGUUUCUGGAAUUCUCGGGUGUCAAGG", "log2 enrichment": 0.326}
{"Strand": "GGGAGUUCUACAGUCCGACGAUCAAGUCCUGUGCUACACAUCGUAUGUACCGAAUCGGGAAAAAGGGAAAGGGUUUGGGAAAGUAUUAUGUUACGCCGUUCGGAUCUGCACUUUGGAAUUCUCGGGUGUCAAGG", "log2 enrichment": -1.84}
